Measurements from different studies.
Every numbered part comes from another study and shows a few of its results, in no order. Values joined by “and” are separate records of one study, mostly repeats; a detail may differ.
Sequence of UniProt Q7KZI7 (whole entry, looked up): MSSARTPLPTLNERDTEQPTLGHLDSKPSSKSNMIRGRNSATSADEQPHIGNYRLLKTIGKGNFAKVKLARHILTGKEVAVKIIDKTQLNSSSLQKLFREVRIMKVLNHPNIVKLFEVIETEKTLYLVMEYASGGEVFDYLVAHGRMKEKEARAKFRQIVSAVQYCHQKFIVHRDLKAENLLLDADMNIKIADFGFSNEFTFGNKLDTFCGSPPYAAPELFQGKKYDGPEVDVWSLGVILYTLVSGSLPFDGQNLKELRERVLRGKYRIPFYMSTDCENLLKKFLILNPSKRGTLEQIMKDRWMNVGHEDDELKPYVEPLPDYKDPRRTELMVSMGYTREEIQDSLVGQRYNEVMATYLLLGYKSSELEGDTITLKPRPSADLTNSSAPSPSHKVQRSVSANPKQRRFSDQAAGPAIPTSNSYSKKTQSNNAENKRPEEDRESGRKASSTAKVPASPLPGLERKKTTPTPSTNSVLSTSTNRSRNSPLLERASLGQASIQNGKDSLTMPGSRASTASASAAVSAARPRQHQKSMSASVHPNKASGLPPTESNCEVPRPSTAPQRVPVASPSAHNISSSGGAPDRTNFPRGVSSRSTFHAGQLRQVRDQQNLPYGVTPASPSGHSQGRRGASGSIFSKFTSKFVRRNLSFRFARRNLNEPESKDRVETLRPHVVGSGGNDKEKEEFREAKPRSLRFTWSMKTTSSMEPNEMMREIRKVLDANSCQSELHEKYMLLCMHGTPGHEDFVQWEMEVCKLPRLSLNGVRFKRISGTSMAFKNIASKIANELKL
Sequence of UniProt Q16566 (whole entry, looked up): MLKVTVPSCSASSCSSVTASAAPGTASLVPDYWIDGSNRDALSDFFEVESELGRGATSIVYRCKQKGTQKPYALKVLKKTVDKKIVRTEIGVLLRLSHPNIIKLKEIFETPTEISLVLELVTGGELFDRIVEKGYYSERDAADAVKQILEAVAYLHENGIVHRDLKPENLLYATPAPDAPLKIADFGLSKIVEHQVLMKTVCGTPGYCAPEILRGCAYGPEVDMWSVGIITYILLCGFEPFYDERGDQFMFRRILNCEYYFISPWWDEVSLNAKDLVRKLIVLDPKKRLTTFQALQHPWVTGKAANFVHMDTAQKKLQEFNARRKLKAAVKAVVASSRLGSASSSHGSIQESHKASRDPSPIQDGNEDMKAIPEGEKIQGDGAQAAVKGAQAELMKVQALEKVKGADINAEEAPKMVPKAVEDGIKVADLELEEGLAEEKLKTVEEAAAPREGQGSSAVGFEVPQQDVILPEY
Sequence of UniProt P06493 (whole entry, looked up): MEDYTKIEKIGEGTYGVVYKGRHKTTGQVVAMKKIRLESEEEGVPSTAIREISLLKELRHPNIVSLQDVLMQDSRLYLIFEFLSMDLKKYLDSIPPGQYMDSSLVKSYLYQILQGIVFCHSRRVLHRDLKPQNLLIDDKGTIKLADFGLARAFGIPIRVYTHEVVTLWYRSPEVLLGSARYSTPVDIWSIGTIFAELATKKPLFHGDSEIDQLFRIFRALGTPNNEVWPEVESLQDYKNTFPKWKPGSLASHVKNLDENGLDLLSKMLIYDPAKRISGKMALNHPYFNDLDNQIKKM
Sequence of UniProt Q02750 (whole entry, looked up): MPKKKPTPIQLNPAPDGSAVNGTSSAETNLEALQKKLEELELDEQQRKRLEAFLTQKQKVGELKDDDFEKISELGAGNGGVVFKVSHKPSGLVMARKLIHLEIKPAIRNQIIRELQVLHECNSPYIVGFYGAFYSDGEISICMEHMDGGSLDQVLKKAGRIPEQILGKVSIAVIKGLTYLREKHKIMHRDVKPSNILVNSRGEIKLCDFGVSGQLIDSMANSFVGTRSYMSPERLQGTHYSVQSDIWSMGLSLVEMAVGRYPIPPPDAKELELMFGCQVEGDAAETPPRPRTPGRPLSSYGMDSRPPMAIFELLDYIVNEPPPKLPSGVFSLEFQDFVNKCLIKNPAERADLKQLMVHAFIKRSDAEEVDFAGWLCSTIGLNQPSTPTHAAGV
Sequence of UniProt Q15759 (whole entry, looked up): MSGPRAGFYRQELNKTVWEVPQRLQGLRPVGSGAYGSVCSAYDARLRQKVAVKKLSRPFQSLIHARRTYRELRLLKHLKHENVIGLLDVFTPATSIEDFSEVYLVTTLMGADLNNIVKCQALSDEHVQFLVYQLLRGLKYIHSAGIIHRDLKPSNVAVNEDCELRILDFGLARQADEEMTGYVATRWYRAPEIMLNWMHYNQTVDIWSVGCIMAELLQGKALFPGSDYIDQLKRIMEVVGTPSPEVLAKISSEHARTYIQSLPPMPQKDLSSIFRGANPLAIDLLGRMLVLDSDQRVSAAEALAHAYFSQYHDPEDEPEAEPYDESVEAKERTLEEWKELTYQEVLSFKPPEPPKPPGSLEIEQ
Sequence of UniProt Q9BRS2 (whole entry, looked up): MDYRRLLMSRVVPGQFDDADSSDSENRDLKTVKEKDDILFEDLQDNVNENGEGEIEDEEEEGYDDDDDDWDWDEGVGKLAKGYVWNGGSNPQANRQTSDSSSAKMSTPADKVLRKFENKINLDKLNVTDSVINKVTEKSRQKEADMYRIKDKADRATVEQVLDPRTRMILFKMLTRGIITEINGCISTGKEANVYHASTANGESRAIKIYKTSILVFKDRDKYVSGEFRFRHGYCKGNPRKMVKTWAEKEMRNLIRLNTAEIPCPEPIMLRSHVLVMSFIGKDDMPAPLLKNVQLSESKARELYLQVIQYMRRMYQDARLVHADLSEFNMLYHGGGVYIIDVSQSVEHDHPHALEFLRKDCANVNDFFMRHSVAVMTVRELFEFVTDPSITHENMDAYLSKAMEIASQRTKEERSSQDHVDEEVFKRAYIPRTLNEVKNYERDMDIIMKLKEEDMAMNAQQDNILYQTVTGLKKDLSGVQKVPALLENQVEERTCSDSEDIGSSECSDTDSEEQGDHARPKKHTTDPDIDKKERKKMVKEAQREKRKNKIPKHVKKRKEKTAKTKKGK
Sequence of UniProt P50750 (whole entry, looked up): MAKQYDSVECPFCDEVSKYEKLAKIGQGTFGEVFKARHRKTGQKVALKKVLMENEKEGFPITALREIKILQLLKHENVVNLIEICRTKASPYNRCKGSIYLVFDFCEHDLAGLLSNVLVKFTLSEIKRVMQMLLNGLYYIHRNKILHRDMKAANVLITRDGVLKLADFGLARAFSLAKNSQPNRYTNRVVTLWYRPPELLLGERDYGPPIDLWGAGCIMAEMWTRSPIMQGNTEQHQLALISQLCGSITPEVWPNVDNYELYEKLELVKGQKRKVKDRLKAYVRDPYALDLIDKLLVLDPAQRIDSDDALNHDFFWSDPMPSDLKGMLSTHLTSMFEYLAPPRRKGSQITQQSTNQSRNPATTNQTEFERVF
Sequence of UniProt Q8WXR4 (whole entry, looked up): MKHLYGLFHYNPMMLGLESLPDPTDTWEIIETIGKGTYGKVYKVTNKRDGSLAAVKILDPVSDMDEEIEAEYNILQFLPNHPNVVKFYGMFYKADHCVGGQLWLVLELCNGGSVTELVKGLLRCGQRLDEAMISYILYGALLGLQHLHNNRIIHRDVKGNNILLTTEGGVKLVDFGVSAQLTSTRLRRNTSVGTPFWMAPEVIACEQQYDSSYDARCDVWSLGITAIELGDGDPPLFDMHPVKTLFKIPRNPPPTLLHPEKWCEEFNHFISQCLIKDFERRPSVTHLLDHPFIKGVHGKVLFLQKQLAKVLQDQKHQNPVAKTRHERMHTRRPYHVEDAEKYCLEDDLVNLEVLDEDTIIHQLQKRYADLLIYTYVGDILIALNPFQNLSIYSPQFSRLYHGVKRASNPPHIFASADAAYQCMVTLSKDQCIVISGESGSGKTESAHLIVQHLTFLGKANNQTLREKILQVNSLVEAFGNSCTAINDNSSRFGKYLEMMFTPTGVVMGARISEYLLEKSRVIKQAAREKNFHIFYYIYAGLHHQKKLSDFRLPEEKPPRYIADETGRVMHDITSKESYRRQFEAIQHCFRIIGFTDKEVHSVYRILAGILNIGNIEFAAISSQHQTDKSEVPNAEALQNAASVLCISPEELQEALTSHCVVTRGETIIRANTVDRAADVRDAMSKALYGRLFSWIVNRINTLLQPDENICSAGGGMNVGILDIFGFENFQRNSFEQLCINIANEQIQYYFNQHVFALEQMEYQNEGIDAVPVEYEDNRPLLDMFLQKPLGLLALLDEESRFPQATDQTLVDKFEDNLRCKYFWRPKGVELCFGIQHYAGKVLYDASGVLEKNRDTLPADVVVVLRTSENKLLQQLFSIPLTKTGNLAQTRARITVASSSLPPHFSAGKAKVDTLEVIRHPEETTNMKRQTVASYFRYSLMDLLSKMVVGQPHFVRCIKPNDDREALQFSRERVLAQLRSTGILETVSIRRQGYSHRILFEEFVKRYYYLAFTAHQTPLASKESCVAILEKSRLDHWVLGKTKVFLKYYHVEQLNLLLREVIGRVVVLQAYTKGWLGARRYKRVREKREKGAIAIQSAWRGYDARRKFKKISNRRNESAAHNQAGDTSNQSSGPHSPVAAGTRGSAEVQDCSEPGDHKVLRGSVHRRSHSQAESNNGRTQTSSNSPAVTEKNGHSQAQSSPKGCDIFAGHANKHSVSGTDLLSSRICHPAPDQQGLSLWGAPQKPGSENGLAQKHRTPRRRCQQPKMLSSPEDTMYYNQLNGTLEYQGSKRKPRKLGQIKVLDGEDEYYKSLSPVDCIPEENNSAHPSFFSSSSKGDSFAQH
Sequence of UniProt Q16539 (whole entry, looked up): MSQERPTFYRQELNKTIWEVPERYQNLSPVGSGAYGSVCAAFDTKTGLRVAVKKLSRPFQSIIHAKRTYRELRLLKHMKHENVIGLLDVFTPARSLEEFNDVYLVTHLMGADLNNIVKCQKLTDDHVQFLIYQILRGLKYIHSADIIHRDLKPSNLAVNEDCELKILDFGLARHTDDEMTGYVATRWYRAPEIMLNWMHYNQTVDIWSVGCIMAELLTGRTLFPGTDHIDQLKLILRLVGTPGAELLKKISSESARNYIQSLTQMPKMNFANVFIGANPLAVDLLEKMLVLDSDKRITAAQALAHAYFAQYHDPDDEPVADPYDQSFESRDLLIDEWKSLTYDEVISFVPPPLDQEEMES

Study 1
Compound: COc1cc(Nc2c(C#N)cnc3cc(OCCCN4CCN(C)CC4)c(OC)cc23)c(Cl)cc1Cl
Effect on: enzyme activity
Action: inhibitor
Tested at: 0.5 µM
Baseline: control
Endpoint: remaining activity
Cyclin-dependent kinase 9, with cyclin K (CDK9, Homo sapiens, UniProt P50750): 102%
RAC-beta serine/threonine-protein kinase (AKT2, Homo sapiens, UniProt P31751): 104%
Serine/threonine-protein kinase MRCK beta (CDC42BPB, Homo sapiens, UniProt Q9Y5S2): 88.2%
Discoidin domain-containing receptor 2 (DDR2, Homo sapiens, UniProt Q16832): 105%
Ribosomal protein S6 kinase alpha-4 (RPS6KA4, Homo sapiens, UniProt O75676): 101%
Rho-associated protein kinase 1 (ROCK1, Homo sapiens, UniProt Q13464): 105%
Dual specificity mitogen-activated protein kinase kinase 1 (MAP2K1, Homo sapiens, UniProt Q02750): 65.3%
Serine/threonine-protein kinase Nek3 (NEK3, Homo sapiens, UniProt P51956): 85.9%
Cyclin-dependent kinase 1, with cyclin A (CDK1, Homo sapiens, UniProt P06493): 96.9%
Mitogen-activated protein kinase 11 (MAPK11, Homo sapiens, UniProt Q15759): 101%
Tyrosine-protein kinase TXK (TXK, Homo sapiens, UniProt P42681): 27.5%
Calcium/calmodulin-dependent protein kinase type IV (CAMK4, Homo sapiens, UniProt Q16566): 90.7%
Dual specificity protein kinase CLK4 (CLK4, Homo sapiens, UniProt Q9HAZ1): 76.6%
Serine/threonine-protein kinase PLK3 (PLK3, Homo sapiens, UniProt Q9H4B4): 98.5%
cGMP-dependent protein kinase 2 (PRKG2, Homo sapiens, UniProt Q13237): 109%
Misshapen-like kinase 1 (MINK1, Homo sapiens, UniProt Q8N4C8): 1.21%
Calcium/calmodulin-dependent protein kinase type 1B (PNCK, Homo sapiens, UniProt Q6P2M8): 109%
Serine/threonine-protein kinase MARK2 (MARK2, Homo sapiens, UniProt Q7KZI7): 99.9%
Myosin-IIIb (MYO3B, Homo sapiens, UniProt Q8WXR4): 40.3%
Mitogen-activated protein kinase 14 (MAPK14, Homo sapiens, UniProt Q16539): 88.6%
Serine/threonine-protein kinase DCLK2 (DCLK2, Homo sapiens, UniProt Q8N568): 98.4%

Study 2
Target: Bromodomain-containing protein 4, BD1 (BRD4, Homo sapiens, UniProt O60885)
Effect on: acetyl-histone H4 peptide binding
Method: AlphaScreen displacement
Tested at: 50 µM
Endpoint: inhibition
O=C(CSc1nnc(-c2ccccc2O)n1-c1ccccc1)Nc1nccs1: 5.05%
N#CCCc1ccc2c(c1)-c1[nH]c3ccc([N+](=O)[O-])cc3c1CC(=O)N2: 15.5%
COc1cc2ncnc(Nc3ccc(NC(=O)c4ccccc4)cc3)c2cc1OC: 12.8%

Study 3
SMILES: NS(=O)(=O)c1cc(NC(=O)Cc2ccccc2)ccc1Oc1cccc(Cl)c1
Effect on: cell-free assay
Method: competition with immobilised ligand
Tested at: 1 µM
Endpoint: remaining binding
Serine/threonine-protein kinase MARK1 (MARK1, Homo sapiens, UniProt Q9P0L2): 100%
Insulin receptor (INSR, Homo sapiens, UniProt P06213): 100%
Protein kinase C epsilon type (PRKCE, Homo sapiens, UniProt Q02156): 87%
Serine/threonine-protein kinase RIO1 (RIOK1, Homo sapiens, UniProt Q9BRS2): 93%
5'-AMP-activated protein kinase catalytic subunit alpha-1 (PRKAA1, Homo sapiens, UniProt Q13131): 71%

Study 4
Cell line: A-375
Tested at: 100 µM
Time: 36 h
Endpoint: viability
O=C1CN2Cc3c(ccc(Cl)c3Cl)N=C2N1: 77.7%
NC(=O)OCC(COC(N)=O)c1ccccc1: 116%
O=C(O)CCCNC(=O)c1cccnc1: 103%
COc1ccccc1N1CCN(CC(O)COc2cccc3ccccc23)CC1 (centres unmarked): 39.2%
CC(C)c1nc(CN(C)C(=O)N[C@H](C(=O)N[C@@H](Cc2ccccc2)C[C@H](O)[C@H](Cc2ccccc2)NC(=O)OCc2cncs2)C(C)C)cs1: 5.94%

Study 5
Host: mouse
Matrix: microsomes or S9
Tested at: 2 µM
Time: 0.5 h
Endpoint: remaining compound
CCn1ccc(C(=O)Nc2cccn3ncnc23)n1: 0.13%
CC(=O)c1ccc(Nc2nc3ccc(C)cc3n3cnnc23)cc1: 59.5%
c1ccc(-c2ncc(-c3nc4ccncc4[nH]3)s2)nc1: 5.88%
CNS(=O)(=O)c1ccc2c(c1)CCN2C(C)=O: 44.2%
O=C(NC1CCCC1)N1Cc2c(sc3c2CCCC3)-n2cccc2C1c1cccc(F)c1 (centres unmarked): < 1%
CCc1ccc(-c2nc3sc(N4CCN(C(=O)c5ccnn5C)CC4)nn3c2NC(C)(C)C)cc1: 45.4%

Study 6
Organism: Sarcocystis neurona
Effect on: parasite growth
Tested at: 10 µM
Time: 96 h
Notes: first screen
Baseline: untreated
Endpoint: log2 fold change
CC(C)(C(=O)c1cccnc1)c1cccnc1: 0.26
COC(=O)Nc1nc2ccc(C(=O)c3ccccc3)cc2[nH]1: 0.19
CCCNC(C)C(=O)Nc1ccccc1C (centres unmarked): 0.06
c1ccc(CC2=NCCN2)cc1: 0.38
CN(C)CCc1c[nH]c2ccc(Cn3cncn3)cc12: 0.085
COc1cc(C(=O)NS(=O)(=O)c2ccccc2C)ccc1Cc1cn(C)c2ccc(NC(=O)OC3CCCC3)cc12: -0.2

Single results of other studies
CC(=O)N[C@@H](Cc1c[nH]c2ccccc12)C(=O)N[C@@H](CCC(=O)C=[N+]=[N-])C(=O)OC(C)C  serine level (UPLC-MS/MS; EL4 tumor, C57BL/6 CES1-/- mice, tumor; subcutaneous, 0.3 mg/kg DON equivalent daily, 5 days; higher = more metabolite): 8.3e+08 a.u. and 9.2e+08 a.u. and 7.36e+08 a.u. and 9.41e+08 a.u. and 8.47e+08 a.u. and 6.39e+08 a.u.
